Results collected from several papers.
Numbered parts are unrelated; each lists some results of a single study. Changes are numbered by the printed parent chain.

Block 1 — technique: DHFR PCA, deep sequencing; medium: yeast; added: (+)-ABA 4.8 µM; baseline: wild-type fitted maximum; reading: higher = stronger binding; endpoint: relative binding score
Target: ABI1, truncated, D143A, DHFR fusion (Arabidopsis thaliana)
Setting: methotrexate growth selection, single substitutions
Starting sequence: PYL1, truncated, DHFR fusion (Arabidopsis thaliana); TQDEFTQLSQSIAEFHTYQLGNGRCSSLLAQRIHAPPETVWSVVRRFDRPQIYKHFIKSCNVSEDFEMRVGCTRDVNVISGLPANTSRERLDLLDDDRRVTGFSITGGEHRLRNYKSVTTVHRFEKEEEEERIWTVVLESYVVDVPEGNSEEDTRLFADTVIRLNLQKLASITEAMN
Change = W134V; value = 74.3%
Change = E67N; value = 62.3%
Change = F15D; value = -0.563%
Change = Y18K; value = 40.2%
Change = I105P; value = -31.7%
Change = G81V; value = -4.55%
Change = E89I; value = -16.5%
Change = R88E; value = 68.4%
Change = D92W; value = -3.6%
Change = G81E; value = 2.29%
Change = R45I; value = -6.65%

Block 2 — technique: competition protein-binding microarray; molecule type: double-stranded DNA, one strand shown; medium: in vitro; concentration: 2 µM; added: Pho4 competitor, 0.05 µM; reading: higher = stronger binding; endpoint: fluorescence intensity; constant ends, left off below: … GTCTTGATTCGCTTGACGCTGCTG
Target: Centromere-binding protein 1, full length, His-tagged (CBF1, Saccharomyces cerevisiae, UniProt P17106, residues 1-351)
Chain of UniProt P17106 (whole entry, looked up): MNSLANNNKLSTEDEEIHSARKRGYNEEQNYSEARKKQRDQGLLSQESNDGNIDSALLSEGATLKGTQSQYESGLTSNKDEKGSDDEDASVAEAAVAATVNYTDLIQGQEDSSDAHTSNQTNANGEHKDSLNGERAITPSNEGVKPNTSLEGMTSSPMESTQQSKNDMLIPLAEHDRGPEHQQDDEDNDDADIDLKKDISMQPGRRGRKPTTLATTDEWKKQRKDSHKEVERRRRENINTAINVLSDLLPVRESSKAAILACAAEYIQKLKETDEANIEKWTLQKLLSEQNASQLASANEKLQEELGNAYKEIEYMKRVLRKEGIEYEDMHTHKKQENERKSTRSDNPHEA
Setting: whole 60-bp probe, lowest competitor level
Oligonucleotide = ATACCAAATGTCCAGCCCGTGACGGTGCAGCAGGGT; value = 152 a.u.
Oligonucleotide = TTAACGGGAAGGCGCGTCGTGATGGTCTCGCGCTTT; value = 61.9 a.u.
Oligonucleotide = CATACCCAACCTTGTCACTATACTTAAGATATTTGT; value = 77.4 a.u.
Oligonucleotide = AAAGCGGTAATTTGCGGGGTGGGTGCAGATATCTAT; value = 77.5 a.u.
Oligonucleotide = CTTTCCCGATCTTGTAAAGTGGGTGTAGCACATTTG; value = 71.3 a.u.
Oligonucleotide = AACTCCTGTGGCAACTTCGTGATGGTGTTGATCTCC; value = 63.2 a.u.
Oligonucleotide = AAGCCACAAACTTTTTGCATGACAGTCATTGTGTAC; value = 106 a.u.
Oligonucleotide = GTCTTGTCTCATTGATTCGTGGGTGTCCCCACTTCA; value = 75.2 a.u.
Oligonucleotide = TCTTACTGCCCTTATAATGTGACGCCAACTTTAGCG; value = 84.3 a.u.
Oligonucleotide = CGTCCTAGTGATTGCATGGTGGGTGCCATGAGGAAG; value = 85.6 a.u.
Oligonucleotide = TGCAGGGAGAGGTGGCACGAGGCCGAGAGACGGGAG; value = 113 a.u.
Oligonucleotide = CATTAAGTGCTTCCTCACGTGCCGATCTACTTCTCT; value = 1270 a.u.
Oligonucleotide = CCCTTTCCAACGCCCTACGTGCCAGGCCTCGACCGG; value = 56.3 a.u.
Oligonucleotide = GTAACTGATGAGTACCATGTGTTTAACGATCTTGAG; value = 101 a.u.
Oligonucleotide = GCCGCAAATGGCAATCACATGACAATGGCTTGGCCC; value = 1500 a.u.
Oligonucleotide = TGTCGAGGTATCGGCCGCGTGGAACTACCGGGAATT; value = 78.3 a.u.
Oligonucleotide = CCGCAGTGCGTAGTTGACGTGGGTAGAAAGCTAGTG; value = 47.5 a.u.
Oligonucleotide = AAGGCCGAGAGGAAGCGCGTGATGGAAGCCCGATCT; value = 107 a.u.
Oligonucleotide = AAATTACTAAGTTGCCTCGTGGGTGACGCCGTATGA; value = 86.7 a.u.

Block 3 — technique: universal PBM; molecule type: double-stranded DNA, one strand shown; medium: in vitro; concentration: not given; reading: higher = stronger binding; endpoint: E-score
Target: Sal-like protein 4, full length isoform B (SALL4, Homo sapiens, UniProt Q9UJQ4-2, residues 1-616)
Setting: 8-mer, flanks averaged, mean of replicates
Oligonucleotide = CAGCTTAA; value = -0.0187
Oligonucleotide = AGAGCGAT; value = -0.23
Oligonucleotide = GCCCATAA; value = 0.00165
Oligonucleotide = CATACTAA; value = 0.198
Oligonucleotide = CCGCTGAG; value = -0.267
Oligonucleotide = ACGGCCAC; value = -0.139
Oligonucleotide = GAAAAGAC; value = 0.0727
Oligonucleotide = GTCGCCTA; value = -0.204
Oligonucleotide = ATCGGCCA; value = -0.186
Oligonucleotide = ATGGCCCG; value = -0.229
Oligonucleotide = CGCATTAC; value = 0.0207
Oligonucleotide = GCTGCCCC; value = -0.326
Oligonucleotide = AGACCGCG; value = -0.188
Oligonucleotide = TGTAATAA; value = 0.443
Oligonucleotide = CCGGATTA; value = -0.136
Oligonucleotide = CCGTTAGC; value = -0.07
Oligonucleotide = GAGTAGCC; value = -0.268
Oligonucleotide = GAGTCTGC; value = -0.284
Oligonucleotide = AGCAGGCG; value = -0.294
Oligonucleotide = ACCCGCCG; value = -0.26
Oligonucleotide = GAATTAAA; value = 0.18

Block 4 — target: CCND1, cyclin fold, Cln2 fusion (human); technique: yeast growth competition, sequencing; medium: yeast; setting: weak parent motif; baseline: not given; reading: higher = stronger binding; endpoint: normalised enrichment score
Starting sequence: MASTL docking peptide (human); PMIAKNLMCELDE; partner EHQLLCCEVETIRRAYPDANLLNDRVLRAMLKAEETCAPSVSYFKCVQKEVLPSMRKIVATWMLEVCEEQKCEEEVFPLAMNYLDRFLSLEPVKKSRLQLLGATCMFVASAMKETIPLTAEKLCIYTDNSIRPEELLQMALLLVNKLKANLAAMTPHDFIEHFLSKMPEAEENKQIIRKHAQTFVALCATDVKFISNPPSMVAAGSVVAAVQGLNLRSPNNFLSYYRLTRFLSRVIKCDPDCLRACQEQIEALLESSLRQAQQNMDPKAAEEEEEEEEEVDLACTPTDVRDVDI
Change = L11H; value = 0.342
Change = M8W; value = 0.446
Change = M2L; value = 0.244
Change = A4Y; value = 0.15
Change = C9R; value = 0.261
Change = I3T; value = 0.225
Change = I3M; value = 0.0716
Change = L7Q; value = 0.115
Change = L11D; value = -0.135
Change = I3E; value = 0.193
Change = A4T; value = 0.135
Change = K5E; value = -0.121
Change = A4E; value = -0.0205
Change = L7G; value = -0.254
Change = L11I; value = 0.106
Change = D12P; value = -0.00498
Change = M2C; value = 0.218
Change = M8S; value = 0.471
Change = C9Y; value = -0.121
